Experimental data pooled from the literature.
Each numbered part is a random draw from the data of one study; scales do not carry over between parts.

Sample 1 — method: universal PBM; molecule type: double-stranded DNA, one strand shown; medium: in vitro; tested at: not given; reading: higher = stronger binding; measurement: E-score
Target: Sal-like protein 4, full length isoform B (SALL4, Homo sapiens, UniProt Q9UJQ4-2, residues 1-616)
Notes: 8-mer, flanks averaged, mean of replicates
GTCCGGAA: -0.165
AGGCCCGC: -0.322
ACCTTAGC: -0.056
CCTTCCTC: -0.157
AATATGCC: 0.133

Sample 2 — method: RNA Bind-n-Seq; molecule type: RNA; medium: in vitro; tested at: 365 nM; reference: no-protein control; reading: higher = stronger binding; measurement: RBNS enrichment (R)
Target: RNA binding protein fox-1 homolog 2, RRM domain, GST-SBP tag (RBFOX2, Homo sapiens, UniProt O43251-10, residues 100-194)
Notes: natural RNA segment, single round, ends assumed
GGGAGUUCUACAGUCCGACGAUCAUUAGUACAUCAUUUUCUCUGGAUUUUCUUCACUUCCCUCUUCCUUUCUACUAACUCCUUCCUUAAAGGCCAUAUCACUCCAUUUGCAUUAUUUGUGCAAAUGCCAGGGUUGGAAUUCUCGGGUGCCAA: 0.541
GGGAGUUCUACAGUCCGACGAUCUGCUGCUCAUGAAGAAGUGCACAAGGCACAAAUGUGUACACUUCCCAUGGGACCACAGACCCAGCUCAGCUCUGUUGAAGACCAAGCACAAAGGCCUUGAAGAGUGGACAUGGAAUUCUCGGGUGCCAA: 0.471
GGGAGUUCUACAGUCCGACGAUCGGGGAGGAAUAAUUUUAUAAUUGCAUUUCCAGGUAUUUUUCAAGAUUACGAAAAUAUGCUACUCUGAUGUGUUAUGGUUCCUGAAUUUCUUUUCUUUCUCACCCUCUUUGUGGAAUUCUCGGGUGCCAA: 0.503

Sample 3 — method: protein-binding microarray; molecule type: double-stranded DNA, one strand shown; medium: in vitro; tested at: 940 nM top; notes: 60-bp whole probe; together with: salmon DNA 0.4 mg/ml; reference: random background probes; reading: higher = stronger binding; measurement: fitted relative affinity; shared flanks, not repeated: GCCTAGCAC … GTCTTGATTCGCTTGACGCTGCTG
Target: Interferon regulatory factor 5, full length, phosphomimetic (IRF5, Homo sapiens, UniProt Q13568-2, residues 1-514, S451D/S453D/S456D/S462D)
TTAGGTTTCGACCATCGGTTAGTGCTA: 8.77 z-score
TTAGGTGTCCTACTGCTTTAGTGCTAG: -0.208 z-score
AGTGTTTGCCCTATTTAAAAGTGCTAG: 0.875 z-score
GAGGGACTGGGTTTCGGGACGTGCTAG: 2.89 z-score
GACGGTTTCCTACTGCAGACGTGCTAG: 0.953 z-score
CACGATCTCAGTATCGAGACGTGCTAG: 1.95 z-score

Single results of other studies
PhoQ, residues 284 288 289 292 302 303 SACGEM  fold induction (PhoP, residues 12 14 15 18 19 DLLYY (Escherichia coli, UniProt P23836); Sort-seq, refers to: YFP reporter; E. coli; PhoQ-PhoP variant library, together with: 10 µM Mg2+; reference: high Mg2+ state, higher = stronger signaling): 2.74

A few entries again (single results of other studies):
PhoQ, residues 284 288 289 292 302 303 SACGEM  fold induction (PhoP, residues 12 14 15 18 19 DLLYY (Escherichia coli, UniProt P23836); Sort-seq, refers to: YFP reporter; E. coli; PhoQ-PhoP variant library, together with: 10 µM Mg2+; reference: high Mg2+ state, higher = stronger signaling): 2.74
